Results gathered from unrelated publications.
Compare with care: the assays were run in different laboratories. ± marks the error that the study gave. ≈ marks a conversion by molar mass, not a printed value.

Compound | tested on | test | test system | conditions | quantity | value
O=C(NCc1ccccc1)c1cn(Cc2ccc(C(F)(F)F)cc2)c2ccc(Oc3ccccc3)cc2c1=O | MDA-MB-231/LM2-4 | DNS | – | 72 h, 10% FBS | CC50 | 11.7 ± 0.47 µM
COc1ccc(N=Nc2c(N)nn3c(-c4ccc(Cl)cc4Cl)cc(-c4ccc(OCc5ccccc5)cc4)nc23)cc1 | Candida albicans | broth microdilution | ATCC 10231 | – | MFC/MIC ratio | 4
O=C(NCc1ccc(Cl)cc1)c1cn(Cc2ccc(Cl)cc2)c2ccc(Oc3ccccc3)cc2c1=O | Jurkat | – | – | 72 h | CC50 | 11.2 ± 0.21 µM
Cc1ccc(N=Nc2c(N)nn3c(-c4ccc(Cl)cc4Cl)cc(-c4ccc(OCc5ccccc5)cc4)nc23)cc1 | Escherichia coli | – | ATCC 25955 | – | MBC | 62.5 µg/mL (≈ 108 µM)
O=C(NCc1ccc(O)cc1)c1cn(Cc2ccc(F)cc2)c2ccc(Oc3ccccc3)cc2c1=O | T47D | – | – | 72 h, 10% FBS | CC50 | 85.7 ± 2.4 µM
CC[C@H](C)[C@H](NC(=O)[C@@H]1CCCN1C(=O)CNC(=O)[C@H](Cc1ccccc1)NC(=O)[C@H](CC(N)=O)NC(=O)[C@H](CC(N)=O)NC(=O)[C@H](CO)NC(=O)[C@H](CO)NC(=O)[C@H](Cc1c[nH]cn1)NC(=O)[C@H](CCCNC(=N)N)NC(=O)[C@H](CC(C)C)NC(=O)[C@H](Cc1ccccc1)NC(=O)[C@H](CCC(=O)O)NC(=O)[C@H](C)NC(=O)[C@H](CC(C)C)NC(=O)[C@H](CCCNC(=N)N)NC(=O)[C@H](CCC(N)=O)NC(=O)[C@@H](NC(=O)[C@H](C)NC(=O)[C@@H]1CSSC[C@H](NC(=O)[C@H](CCCCN)NC(=O)CC[C@H](NC(=O)CCCCCCCCCCCCCCCCCCC(=O)O)C(=O)O)C(=O)N[C@@H](CC(N)=O)C(=O)N[C@@H]([C@@H](C)O)C(=O)N[C@@H](C)C(=O)N[C@@H]([C@@H](C)O)C(=O)N1)[C@@H](C)O)C(=O)N[C@@H](CC(C)C)C(=O)N1CCC[C@H]1C(=O)N1CCC[C@H]1C(=O)N[C@H](C(=O)N[C@@H](CC(N)=O)C(=O)N[C@H](C(=O)NCC(=O)N[C@@H](CO)C(=O)N[C@@H](CC(N)=O)C(=O)N[C@H](C(=O)N1CCC[C@H]1C(N)=O)[C@@H](C)O)C(C)C)[C@@H](C)O | – | conditioned taste avoidance | lean male Sprague-Dawley rat | subcutaneous, 72 h | ED50 | 4.2 nmol/kg
O=C(NCc1ccc(C(F)(F)F)cc1)c1cn(Cc2ccc(F)cc2)c2ccc(Oc3ccccc3)cc2c1=O | MDA-MB-231/LM2-4 | DNS | – | 72 h, 10% FBS | CC50 | 38.6 ± 0.64 µM
CCc1cnc(NC(=O)/C=C/c2cccs2)nc1 | Candida albicans | – | – | concentration not given | antifungal activity | inactive
